Measurements gathered from unrelated publications.
A part holds a random share of what one study measured.
UniProt Q9UM73, sequence (whole entry, looked up): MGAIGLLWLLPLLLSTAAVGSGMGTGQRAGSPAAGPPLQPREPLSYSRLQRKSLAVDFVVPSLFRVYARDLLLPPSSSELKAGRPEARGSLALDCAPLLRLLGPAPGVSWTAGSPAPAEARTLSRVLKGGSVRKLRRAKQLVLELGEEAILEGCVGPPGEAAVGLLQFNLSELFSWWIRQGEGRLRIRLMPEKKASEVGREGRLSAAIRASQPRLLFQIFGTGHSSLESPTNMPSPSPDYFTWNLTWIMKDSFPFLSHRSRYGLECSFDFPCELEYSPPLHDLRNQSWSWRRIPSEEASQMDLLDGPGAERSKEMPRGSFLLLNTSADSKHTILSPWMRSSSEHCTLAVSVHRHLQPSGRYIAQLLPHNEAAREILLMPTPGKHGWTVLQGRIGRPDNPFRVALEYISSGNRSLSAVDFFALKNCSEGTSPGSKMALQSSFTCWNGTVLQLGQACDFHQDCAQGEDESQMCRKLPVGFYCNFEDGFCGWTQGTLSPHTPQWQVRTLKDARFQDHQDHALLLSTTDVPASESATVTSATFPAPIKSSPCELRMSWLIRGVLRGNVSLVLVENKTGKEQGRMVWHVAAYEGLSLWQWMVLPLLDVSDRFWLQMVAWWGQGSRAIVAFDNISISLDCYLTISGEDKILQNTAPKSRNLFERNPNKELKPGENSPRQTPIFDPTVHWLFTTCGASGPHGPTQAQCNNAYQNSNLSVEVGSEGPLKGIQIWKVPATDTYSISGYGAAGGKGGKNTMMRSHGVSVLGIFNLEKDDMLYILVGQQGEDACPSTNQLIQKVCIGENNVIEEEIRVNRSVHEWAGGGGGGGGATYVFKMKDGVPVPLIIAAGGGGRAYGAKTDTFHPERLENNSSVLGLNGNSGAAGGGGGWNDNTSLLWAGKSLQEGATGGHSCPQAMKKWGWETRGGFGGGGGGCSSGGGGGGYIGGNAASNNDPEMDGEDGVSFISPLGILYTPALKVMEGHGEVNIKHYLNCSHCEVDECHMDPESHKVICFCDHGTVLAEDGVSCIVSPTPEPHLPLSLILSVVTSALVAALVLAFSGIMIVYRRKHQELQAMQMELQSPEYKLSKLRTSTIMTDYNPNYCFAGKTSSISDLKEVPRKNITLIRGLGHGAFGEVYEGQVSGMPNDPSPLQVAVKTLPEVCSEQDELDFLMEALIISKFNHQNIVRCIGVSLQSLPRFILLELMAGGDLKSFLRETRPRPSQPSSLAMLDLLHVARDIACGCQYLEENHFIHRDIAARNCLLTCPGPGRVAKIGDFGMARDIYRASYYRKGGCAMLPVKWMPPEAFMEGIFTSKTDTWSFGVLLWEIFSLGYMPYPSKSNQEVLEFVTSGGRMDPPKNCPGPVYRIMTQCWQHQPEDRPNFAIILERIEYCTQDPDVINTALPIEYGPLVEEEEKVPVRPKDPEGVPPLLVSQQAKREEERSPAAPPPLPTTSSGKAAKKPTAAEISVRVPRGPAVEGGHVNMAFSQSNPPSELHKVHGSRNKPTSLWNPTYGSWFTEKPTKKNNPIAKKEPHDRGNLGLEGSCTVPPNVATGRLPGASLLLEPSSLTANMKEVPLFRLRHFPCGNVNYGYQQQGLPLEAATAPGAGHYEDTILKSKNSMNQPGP
UniProt P00519, sequence (whole entry, unmodified, looked up): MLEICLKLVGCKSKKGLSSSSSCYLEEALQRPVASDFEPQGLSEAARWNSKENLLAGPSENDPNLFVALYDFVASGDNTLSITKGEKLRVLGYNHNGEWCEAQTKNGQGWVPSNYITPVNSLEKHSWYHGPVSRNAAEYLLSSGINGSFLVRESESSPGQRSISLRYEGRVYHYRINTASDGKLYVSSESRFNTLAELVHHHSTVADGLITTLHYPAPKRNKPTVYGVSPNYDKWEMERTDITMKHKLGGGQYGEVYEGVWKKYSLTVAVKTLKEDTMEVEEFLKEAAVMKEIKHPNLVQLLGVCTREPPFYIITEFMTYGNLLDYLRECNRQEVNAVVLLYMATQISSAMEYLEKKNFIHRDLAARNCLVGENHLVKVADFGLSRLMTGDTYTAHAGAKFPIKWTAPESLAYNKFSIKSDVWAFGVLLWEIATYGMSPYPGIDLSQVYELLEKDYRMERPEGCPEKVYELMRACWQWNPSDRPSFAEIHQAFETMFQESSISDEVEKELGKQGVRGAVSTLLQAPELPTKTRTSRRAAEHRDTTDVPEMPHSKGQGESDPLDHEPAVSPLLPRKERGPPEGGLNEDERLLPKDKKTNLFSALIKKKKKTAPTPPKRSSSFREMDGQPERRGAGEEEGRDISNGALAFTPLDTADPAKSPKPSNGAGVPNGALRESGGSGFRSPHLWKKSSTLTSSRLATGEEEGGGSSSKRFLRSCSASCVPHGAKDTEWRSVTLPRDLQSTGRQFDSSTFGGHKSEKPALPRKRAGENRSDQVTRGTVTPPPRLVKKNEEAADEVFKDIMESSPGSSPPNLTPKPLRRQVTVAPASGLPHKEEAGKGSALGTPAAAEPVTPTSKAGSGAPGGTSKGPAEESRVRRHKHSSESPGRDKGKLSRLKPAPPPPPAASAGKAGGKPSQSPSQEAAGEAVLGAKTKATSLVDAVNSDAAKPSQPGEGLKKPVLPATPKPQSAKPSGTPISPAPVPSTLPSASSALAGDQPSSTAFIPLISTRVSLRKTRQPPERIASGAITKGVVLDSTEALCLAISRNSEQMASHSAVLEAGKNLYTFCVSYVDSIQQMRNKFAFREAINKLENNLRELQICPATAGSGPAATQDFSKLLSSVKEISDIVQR
UniProt P21127, sequence (whole entry, looked up): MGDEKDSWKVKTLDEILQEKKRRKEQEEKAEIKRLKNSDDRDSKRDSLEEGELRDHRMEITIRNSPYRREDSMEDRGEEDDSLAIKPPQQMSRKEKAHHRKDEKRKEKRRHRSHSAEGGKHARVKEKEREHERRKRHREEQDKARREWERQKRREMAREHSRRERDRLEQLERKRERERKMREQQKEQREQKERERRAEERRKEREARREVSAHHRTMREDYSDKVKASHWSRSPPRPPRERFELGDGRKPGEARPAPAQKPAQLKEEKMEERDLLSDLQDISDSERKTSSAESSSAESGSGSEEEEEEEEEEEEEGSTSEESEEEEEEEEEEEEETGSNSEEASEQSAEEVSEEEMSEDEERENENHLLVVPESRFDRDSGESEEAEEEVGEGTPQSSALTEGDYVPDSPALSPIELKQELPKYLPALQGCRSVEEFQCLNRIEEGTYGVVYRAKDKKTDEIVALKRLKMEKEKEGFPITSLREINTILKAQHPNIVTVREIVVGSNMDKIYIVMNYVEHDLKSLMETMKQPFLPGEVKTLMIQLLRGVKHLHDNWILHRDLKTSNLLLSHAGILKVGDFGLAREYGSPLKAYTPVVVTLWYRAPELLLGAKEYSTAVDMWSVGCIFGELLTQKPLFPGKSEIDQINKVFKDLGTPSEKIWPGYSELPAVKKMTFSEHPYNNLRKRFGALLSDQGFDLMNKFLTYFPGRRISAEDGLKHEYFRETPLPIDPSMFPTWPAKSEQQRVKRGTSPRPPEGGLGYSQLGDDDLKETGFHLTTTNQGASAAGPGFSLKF
UniProt P11309, sequence (whole entry, looked up): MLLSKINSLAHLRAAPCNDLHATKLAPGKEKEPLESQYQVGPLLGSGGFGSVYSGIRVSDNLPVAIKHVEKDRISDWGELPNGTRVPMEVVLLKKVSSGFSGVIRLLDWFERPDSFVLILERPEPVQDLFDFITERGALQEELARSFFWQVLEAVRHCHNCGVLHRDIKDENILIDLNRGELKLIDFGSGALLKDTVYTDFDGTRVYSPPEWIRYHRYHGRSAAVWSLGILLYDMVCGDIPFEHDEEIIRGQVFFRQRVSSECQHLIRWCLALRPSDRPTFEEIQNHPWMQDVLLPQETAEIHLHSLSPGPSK

Sample 1 — host: mouse; sample: microsomes or S9; concentration: 2 µM; time: 0.5 h
Structure (SMILES)	remaining compound
O=S1(=O)CC2Sc3ncnc4ncn(c34)C2C1 (stereo not drawn)	> 99%
COc1ccc(-c2cc(CNC(=O)c3ccc(=O)[nH]n3)no2)cc1OC	81.8%
Cc1cc2c(cc1C)OC(c1nc(N(C)C)no1)C2 (stereo not drawn)	6.84%
Cn1nc(CNC(=O)Cn2nc(C(F)(F)F)c3c2CCC3)c(Cl)c1Cl	1.56%

Sample 2 — organism: Sarcocystis neurona; effect on: parasite growth; concentration: 10 µM; time: 96 h; notes: first screen; baseline: untreated
Compound	log2 fold change
Cc1onc(-c2ccccc2)c1-c1ccc(S(N)(=O)=O)cc1	0.13
CC(=O)NC[C@H]1CN(c2ccc(N3CCOCC3)c(F)c2)C(=O)O1	0.00827
Oc1ccc(C2CNCCc3c2cc(O)c(O)c3Cl)cc1 (stereo not drawn)	-0.00225
CC/C(=C(\c1ccccc1)c1ccc(OCCN(C)C)cc1)c1ccccc1	-0.35

Sample 3 — concentration: 1 µM
Compound: CN(C(=O)c1ccccc1)c1cc(N(C)c2ccc3c(c2)CCc2ccc(C(=O)NCCN4CCOCC4)cc2C3=O)ccc1F
target	test	remaining binding [%]
CDK11B (Homo sapiens, UniProt P21127)	cell-free assay, competition with immobilised ligand	100
BRAF (Homo sapiens, UniProt P15056, V600E)	cell-free assay, competition with immobilised ligand	100
PIM1 (Homo sapiens, UniProt P11309)	cell-free assay, competition with immobilised ligand	88
Tyrosine-protein kinase ABL1, phosphorylated (ABL1, Homo sapiens, UniProt P00519, F317I)	binding	86
ALK (Homo sapiens, UniProt Q9UM73)	cell-free assay, competition with immobilised ligand	100
PTK2B (Homo sapiens, UniProt Q14289)	cell-free assay, competition with immobilised ligand	87
PRKACB (Homo sapiens, UniProt P22694)	cell-free assay, competition with immobilised ligand	92

Sample 4 — effect on: enzyme activity; mode: inhibitor; concentration: 0.5 µM; baseline: control
Target: Calcium/calmodulin-dependent protein kinase type II subunit beta (CAMK2B, Homo sapiens, UniProt Q13554)
UniProt Q13554, sequence (whole entry, looked up): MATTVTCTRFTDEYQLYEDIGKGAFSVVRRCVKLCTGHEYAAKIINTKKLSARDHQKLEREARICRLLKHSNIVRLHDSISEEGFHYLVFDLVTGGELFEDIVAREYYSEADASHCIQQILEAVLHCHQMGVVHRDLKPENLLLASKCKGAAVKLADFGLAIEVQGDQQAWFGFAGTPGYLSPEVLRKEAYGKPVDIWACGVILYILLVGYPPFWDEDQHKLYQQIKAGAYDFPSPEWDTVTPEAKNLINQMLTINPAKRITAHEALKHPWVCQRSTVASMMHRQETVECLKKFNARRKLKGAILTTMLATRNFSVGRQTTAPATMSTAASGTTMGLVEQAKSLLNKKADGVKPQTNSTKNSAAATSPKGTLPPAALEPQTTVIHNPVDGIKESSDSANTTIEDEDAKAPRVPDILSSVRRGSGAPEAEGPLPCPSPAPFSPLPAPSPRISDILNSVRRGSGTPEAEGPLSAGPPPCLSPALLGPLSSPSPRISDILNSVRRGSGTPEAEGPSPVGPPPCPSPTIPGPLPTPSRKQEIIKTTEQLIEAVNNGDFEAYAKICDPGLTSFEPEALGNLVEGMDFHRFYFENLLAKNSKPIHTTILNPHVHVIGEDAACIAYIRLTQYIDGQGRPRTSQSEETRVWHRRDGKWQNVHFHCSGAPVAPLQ
SMILES	remaining activity
COc1cc2ncnc(Nc3ccc(Oc4ccccc4)cc3)c2cc1OC	98.2%
OCC(O)CCON=C1C(c2c(O)[nH]c3ccccc23)=Nc2ccccc21 (stereo not drawn)	57.9%
O=C1NC(=O)C(c2cn(CCCO)c3ncccc23)=C1c1cnccn1	97.6%
Nc1[nH]nc2nc3ccccc3nc12	90%
Cn1c2ccccc2c2c3c(c4c5ccccc5n(CCC#N)c4c21)CNC3=O	51.3%
CNC(=O)c1cc(Oc2ccc(NC(=O)Nc3ccc(Cl)c(C(F)(F)F)c3)cc2)ccn1	96.7%
Cc1nc(-c2ccccc2)c(-c2ccncc2)o1	95.9%
Nc1ccc2ncnc(NCCc3ccc(Oc4ccccc4)cc3)c2c1	95.1%
COc1ccc(OC)c2c(=S)c3ccccc3[nH]c12	104%
CCOC(=O)c1c(C)[nH]c(/C=C2\C(=O)Nc3ccccc32)c1C	96%
Cn1sc(=O)n(Cc2ccccc2)c1=O	102%
CC(C)[C@H](CO)Nc1nc(Nc2cc(N)cc(Cl)c2)c2ncn(C(C)C)c2n1	98.2%
N#CC(C#N)=C(N)/C(C#N)=C/c1ccc(O)cc1	93.3%
O=C(Nc1cccc(Nc2cc(Nc3cccc(C(F)(F)F)c3)ncn2)c1)C1CC1	105%
COc1ccc(C(=O)Nc2sc3c(c2C(N)=O)CCCC3)cc1OC	99.9%

For quick reference, copied from above (sample 4):
SMILES	remaining activity
O=C1NC(=O)C(c2cn(CCCO)c3ncccc23)=C1c1cnccn1	97.6%
Nc1ccc2ncnc(NCCc3ccc(Oc4ccccc4)cc3)c2c1	95.1%
COc1ccc(C(=O)Nc2sc3c(c2C(N)=O)CCCC3)cc1OC	99.9%
